{"data": "Measured values gathered from unrelated publications", "CASP8": "Caspase-8 (CASP8, Homo sapiens, UniProt Q14790)", "CNR1": "Cannabinoid receptor 1 (CNR1, Homo sapiens, UniProt P21554)", "Kir3.1/Kir3.4": "Kir3.1/Kir3.4 (Homo sapiens, UniProt P48544+P48549)", "note": "Each line is one published result; not all experiments were run side by side. ± marks the error that the study gave.", "sequence of UniProt P48549 (whole entry, looked up)": "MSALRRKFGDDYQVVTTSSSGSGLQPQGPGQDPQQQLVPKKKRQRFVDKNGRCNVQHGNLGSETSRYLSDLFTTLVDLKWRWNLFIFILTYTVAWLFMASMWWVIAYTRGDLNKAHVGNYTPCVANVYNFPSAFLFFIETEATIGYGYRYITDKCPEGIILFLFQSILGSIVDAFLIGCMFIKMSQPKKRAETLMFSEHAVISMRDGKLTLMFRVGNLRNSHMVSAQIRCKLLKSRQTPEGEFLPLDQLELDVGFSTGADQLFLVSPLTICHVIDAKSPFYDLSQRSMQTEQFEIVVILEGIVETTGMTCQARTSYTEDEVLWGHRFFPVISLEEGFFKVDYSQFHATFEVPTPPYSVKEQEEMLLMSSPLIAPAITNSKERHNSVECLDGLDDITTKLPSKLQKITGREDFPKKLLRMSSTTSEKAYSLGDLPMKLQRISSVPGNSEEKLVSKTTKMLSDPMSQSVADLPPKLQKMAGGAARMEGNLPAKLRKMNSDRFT", "sequence of UniProt P48544 (whole entry, looked up)": "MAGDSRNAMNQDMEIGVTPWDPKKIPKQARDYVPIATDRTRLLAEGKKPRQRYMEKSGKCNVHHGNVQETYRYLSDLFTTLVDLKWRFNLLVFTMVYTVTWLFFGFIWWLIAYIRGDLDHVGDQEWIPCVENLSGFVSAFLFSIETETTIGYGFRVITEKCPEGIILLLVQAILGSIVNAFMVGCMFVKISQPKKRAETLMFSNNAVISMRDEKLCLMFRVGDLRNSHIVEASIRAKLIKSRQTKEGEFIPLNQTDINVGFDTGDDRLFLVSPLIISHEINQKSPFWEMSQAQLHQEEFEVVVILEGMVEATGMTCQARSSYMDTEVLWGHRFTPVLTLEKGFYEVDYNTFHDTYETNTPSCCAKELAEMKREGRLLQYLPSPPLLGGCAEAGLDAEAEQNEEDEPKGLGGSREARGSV", "sequence of UniProt Q14790 (whole entry, looked up)": "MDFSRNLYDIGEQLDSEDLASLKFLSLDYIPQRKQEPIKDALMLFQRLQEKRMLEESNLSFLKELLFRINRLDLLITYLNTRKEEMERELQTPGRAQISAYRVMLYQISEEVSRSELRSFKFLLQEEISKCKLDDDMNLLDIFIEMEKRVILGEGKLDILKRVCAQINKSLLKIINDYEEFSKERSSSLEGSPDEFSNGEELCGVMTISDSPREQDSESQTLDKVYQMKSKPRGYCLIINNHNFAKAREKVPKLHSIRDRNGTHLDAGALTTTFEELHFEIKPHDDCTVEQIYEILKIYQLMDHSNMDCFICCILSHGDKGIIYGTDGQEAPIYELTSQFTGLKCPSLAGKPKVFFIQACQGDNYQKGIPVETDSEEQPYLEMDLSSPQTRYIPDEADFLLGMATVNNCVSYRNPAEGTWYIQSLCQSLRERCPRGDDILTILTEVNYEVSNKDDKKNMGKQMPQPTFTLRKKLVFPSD", "sequence of UniProt P21554 (whole entry, looked up)": "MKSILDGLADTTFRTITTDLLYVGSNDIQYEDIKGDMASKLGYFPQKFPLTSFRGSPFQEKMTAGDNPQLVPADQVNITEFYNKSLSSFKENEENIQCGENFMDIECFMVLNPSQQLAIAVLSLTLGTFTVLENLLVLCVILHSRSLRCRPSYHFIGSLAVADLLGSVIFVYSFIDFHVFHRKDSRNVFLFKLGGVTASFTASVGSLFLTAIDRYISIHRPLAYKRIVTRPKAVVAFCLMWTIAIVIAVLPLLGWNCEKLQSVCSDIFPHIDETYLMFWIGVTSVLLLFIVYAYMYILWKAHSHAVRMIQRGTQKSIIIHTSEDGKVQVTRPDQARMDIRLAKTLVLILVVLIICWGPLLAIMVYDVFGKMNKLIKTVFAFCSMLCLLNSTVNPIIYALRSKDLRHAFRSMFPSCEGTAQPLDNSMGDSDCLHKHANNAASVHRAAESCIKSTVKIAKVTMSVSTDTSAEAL", "sequence of UniProt P25103 (whole entry, unmodified, looked up)": "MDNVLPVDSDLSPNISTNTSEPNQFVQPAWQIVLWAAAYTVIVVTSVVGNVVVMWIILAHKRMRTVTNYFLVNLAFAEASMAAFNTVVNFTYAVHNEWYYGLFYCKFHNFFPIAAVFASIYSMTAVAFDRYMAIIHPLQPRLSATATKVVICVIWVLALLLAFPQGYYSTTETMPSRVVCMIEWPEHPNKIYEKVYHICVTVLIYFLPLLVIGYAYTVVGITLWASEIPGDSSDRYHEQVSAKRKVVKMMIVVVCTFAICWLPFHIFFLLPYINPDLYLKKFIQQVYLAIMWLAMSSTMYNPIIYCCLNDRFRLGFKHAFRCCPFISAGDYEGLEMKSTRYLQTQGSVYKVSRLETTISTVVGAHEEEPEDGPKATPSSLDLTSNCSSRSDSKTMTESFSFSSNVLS", "sequence of UniProt Q8TDS7 (whole entry, unmodified, looked up)": "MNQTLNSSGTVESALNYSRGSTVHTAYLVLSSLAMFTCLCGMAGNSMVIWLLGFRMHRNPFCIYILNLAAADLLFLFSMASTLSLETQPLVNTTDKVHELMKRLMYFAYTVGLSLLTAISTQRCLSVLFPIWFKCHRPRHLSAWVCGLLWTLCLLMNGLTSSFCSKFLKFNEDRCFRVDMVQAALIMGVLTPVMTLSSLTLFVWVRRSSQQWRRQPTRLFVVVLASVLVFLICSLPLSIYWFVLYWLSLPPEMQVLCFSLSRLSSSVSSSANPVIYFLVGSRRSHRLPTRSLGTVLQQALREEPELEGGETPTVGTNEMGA", "sequence of UniProt Q969F8 (whole entry, unmodified, looked up)": "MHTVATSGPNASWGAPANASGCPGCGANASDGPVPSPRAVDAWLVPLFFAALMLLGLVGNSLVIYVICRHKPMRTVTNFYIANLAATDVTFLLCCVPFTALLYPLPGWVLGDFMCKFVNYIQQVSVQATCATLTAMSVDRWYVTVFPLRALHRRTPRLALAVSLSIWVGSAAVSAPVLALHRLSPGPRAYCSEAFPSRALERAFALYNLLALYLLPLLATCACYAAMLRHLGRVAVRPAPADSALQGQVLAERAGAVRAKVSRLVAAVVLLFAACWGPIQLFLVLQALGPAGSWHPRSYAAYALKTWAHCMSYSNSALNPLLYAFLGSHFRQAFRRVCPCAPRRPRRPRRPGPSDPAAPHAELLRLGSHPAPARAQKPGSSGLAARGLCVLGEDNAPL", "sequence of UniProt Q9NSD7 (whole entry, unmodified, looked up)": "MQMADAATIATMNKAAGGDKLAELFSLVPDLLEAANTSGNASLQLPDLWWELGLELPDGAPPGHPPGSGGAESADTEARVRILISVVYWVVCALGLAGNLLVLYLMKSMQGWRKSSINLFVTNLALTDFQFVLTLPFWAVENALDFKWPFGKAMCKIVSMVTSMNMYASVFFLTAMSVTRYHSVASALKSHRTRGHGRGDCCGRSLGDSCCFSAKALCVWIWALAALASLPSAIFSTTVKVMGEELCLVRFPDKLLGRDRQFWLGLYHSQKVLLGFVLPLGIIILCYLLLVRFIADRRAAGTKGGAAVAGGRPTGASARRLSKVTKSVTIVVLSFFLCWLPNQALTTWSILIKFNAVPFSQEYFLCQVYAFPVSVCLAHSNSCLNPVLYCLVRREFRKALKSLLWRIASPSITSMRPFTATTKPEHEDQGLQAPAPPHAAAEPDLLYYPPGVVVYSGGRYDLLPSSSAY"}
{"SMILES": "COc1ccc(C2(C(=O)N3CCC(Nc4nc5ccccc5c(=O)[nH]4)CC3)CC2)cc1", "target or system": "MRGPRD (Homo sapiens, UniProt Q8TDS7, Q182A)", "assay": "miniGq recruitment, agonist, BRET", "system": "HEK293T", "setting": "Q182A mutant", "scale": "reference: wild type", "measurement": "Emax", "result": "68 ± 9.11%"}
{"SMILES": "CC(=O)N[C@@H](Cc1ccc(C)cc1)C(=O)N[C@@H](CCCC(=O)O)C(=O)N[C@H](C(=O)N[C@@H](CC(=O)O)C(=O)COC(=O)c1c(C)cccc1C)C(C)(C)C", "target or system": "CASP8", "assay": "enzyme activity, inhibitor", "measurement": "kinact/KI", "result": "167000 M⁻¹ s⁻¹"}
{"SMILES": "COc1cc(C2C(NC(=O)c3ccc(NC(=O)OC(C)(C)C)cc3)(C(=O)O)C(c3ccc(OC(=O)c4cccs4)c(OC)c3)C2(NC(=O)c2ccc(NC(=O)OC(C)(C)C)cc2)C(=O)O)ccc1OC(=O)c1cccs1 (centres unmarked)", "target or system": "GLP1R (Homo sapiens, UniProt P43220, L388A)", "assay": "cAMP accumulation, agonist", "setting": "receptor mutant", "scale": "reference: wild type", "measurement": "Emax", "result": "0.28 ± 8.16%"}
{"SMILES": "CCOC(=O)C(CC)(CCCSCCOCCOCCOCCNc1ccc([N+](=O)[O-])c2nonc12)NC(=O)c1ccc(C2CC2)c(Cc2ccc(F)cc2)n1 (centres unmarked)", "target or system": "CNR1", "assay": "cAMP, agonist", "measurement": "Emax", "result": "96%"}
{"SMILES": "Cc1cc(NC(=O)COc2ccc(Cl)cc2Cl)n(CC(F)(F)F)n1", "target or system": "Kir3.1/Kir3.4", "assay": "thallium flux, activator", "system": "HEK293", "scale": "reference: standard compound", "measurement": "Emax", "result": "75%"}
{"SMILES": "COC1CN([C@H]2CC[C@H]([C@@]3(C)Oc4c(Cl)cc(C(=O)NCc5c(SC)cc(C)[nH]c5=O)c(C)c4O3)CC2)C1", "assay": "RNA-seq, item: CAVIN1", "system": "human, whole blood", "setting": "dose not given, 24 h", "scale": "reference: pretreatment baseline", "measurement": "log2 fold change", "result": 4.27}
{"SMILES": "CC[C@H](C)[C@@H]1NC(=O)[C@H](Cc2ccccc2)NC(=O)[C@H](CCC(=O)O)NC(=O)[C@H](CCCNC(=N)N)NC(=O)CNC(=O)[C@@H](NC(=O)[C@H](CC(C)C)NC(=O)[C@H](CCCNC(=N)N)NC(=O)[C@@H](NC(=O)CNC(=O)[C@H](Cc2ccc(O)cc2)NC(=O)[C@@H]2CCCN2C(=O)[C@H](C)NC(=O)[C@H](C)NC(=O)[C@@H](N)CCCNC(=N)N)C(C)C)CSSC[C@@H]2NC(=O)[C@@H](NC(=O)[C@H](CO)NC(=O)[C@H](CO)NC(=O)[C@H](CO)NC(=O)[C@H](CC(C)C)NC(=O)CNC(=O)[C@H](C)NC(=O)[C@H](CC(C)C)NC(=O)[C@@H](NC(=O)[C@@H](N)CC(=O)O)C(C)C)CSSC[C@H](NC(=O)CNC(=O)[C@H](Cc3c[nH]c4ccccc34)NC(=O)[C@H](CCCCN)NC2=O)C(=O)N[C@@H](CO)C(=O)N[C@@H](CCCCN)C(=O)N[C@@H](CO)C(=O)N[C@@H](CCC(=O)O)C(=O)N[C@@H]([C@@H](C)CC)C(=O)N[C@@H](CO)C(=O)N[C@@H](CO)C(=O)N[C@@H](CC(C)C)C(=O)N[C@H](C(=O)O)CSSC[C@@H](C(=O)NCC(=O)NCC(=O)N[C@@H](CO)C(=O)N[C@@H](CCCNC(=N)N)C(=O)N[C@@H](Cc2c[nH]c3ccccc23)C(=O)O)NC(=O)[C@H]([C@@H](C)O)NC(=O)[C@H](Cc2ccccc2)NC(=O)[C@H]([C@@H](C)CC)NC(=O)[C@H](C(C)C)NC(=O)[C@H](C)NC(=O)[C@H](CCCNC(=N)N)NC1=O", "target or system": "RXFP3 (Homo sapiens, UniProt Q9NSD7, S163A)", "system": "HEK-293T", "scale": "reference: wild type", "measurement": "Emax", "result": "49.9 ± 5.85%"}
{"SMILES": "O=C(COc1cccc(Cl)c1Cl)Nc1cc(C2CC2)nn1C1CCOCC1", "target or system": "Kir3.1/Kir3.4", "assay": "thallium flux, activator", "system": "HEK293", "scale": "reference: standard compound", "measurement": "Emax", "result": "68%"}
{"SMILES": "CCCC[C@H](NC(C)=O)C(=O)N[C@@H](CCC(=O)O)C(=O)N[C@@H](CO)C(=O)N[C@@H](CC(=O)O)C(=O)COC(=O)c1c(C)cccc1C", "target or system": "CASP8", "assay": "enzyme activity, inhibitor", "measurement": "kinact/KI", "result": "1.04e+06 M⁻¹ s⁻¹"}
{"SMILES": "CNC(=N)NCCC[C@H](NC(=O)[C@H](CC(C)C)NC(=O)NNC(=O)[C@H](Cc1ccccc1)NC(=O)[C@@H](NC(=O)[C@H](CC(N)=O)NC(=O)[C@@H]1C[C@@H](O)CN1C(=O)[C@@H](Cc1ccc(O)cc1)NC(C)=O)[C@@H](C)O)C(=O)N[C@@H](Cc1c[nH]c2ccccc12)C(N)=O", "target or system": "KiSS-1 receptor (KISS1R, Homo sapiens, UniProt Q969F8, N119A)", "assay": "inositol phosphate, agonist", "system": "HEK293", "measurement": "Emax", "result": "94.1%"}
{"SMILES": "CCOC(=O)C(CC)(CCCSCCOCCNc1ccc([N+](=O)[O-])c2nonc12)NC(=O)c1ccc(C2CC2)c(Cc2ccc(F)cc2)n1 (centres unmarked)", "target or system": "CNR1", "assay": "cAMP, agonist", "measurement": "Emax", "result": "152%"}
{"SMILES": "CCc1cc(NC(=O)COc2cc(Cl)ccc2Cl)n(CC(F)(F)F)n1", "target or system": "Kir3.1/Kir3.4", "assay": "thallium flux, activator", "system": "HEK293", "scale": "reference: standard compound", "measurement": "Emax", "result": "54%"}
{"SMILES": "Cc1ncsc1-c1ccc(C(C)NC(=O)C2CC(O)CN2C(=O)C(NC(=O)CCCCCCCCCCN2CCCC(Nc3ncc(Cl)c(Nc4ccccc4S(=O)(=O)C(C)C)n3)C2)C(C)(C)C)cc1 (centres unmarked)", "target or system": "22Rv1", "assay": "RNA-seq, item: PBX3 mRNA", "setting": "concentration not given", "scale": "reference: DMSO", "measurement": "log2 fold change", "result": -1.21}
{"SMILES": "CSCC[C@H](NC(=O)[C@H](CC(C)C)NC(=O)CNC(=O)[C@H](Cc1ccccc1)NC(=O)[C@H](Cc1ccccc1)NC(=O)[C@@H](N)CCC(N)=O)C(N)=O", "target or system": "TACR1 (Homo sapiens, UniProt P25103, N89D)", "assay": "agonist", "setting": "concentration not given", "measurement": "Emax", "result": "96 ± 18%"}
{"note": "A few entries again:"}
{"SMILES": "CC[C@H](C)[C@@H]1NC(=O)[C@H](Cc2ccccc2)NC(=O)[C@H](CCC(=O)O)NC(=O)[C@H](CCCNC(=N)N)NC(=O)CNC(=O)[C@@H](NC(=O)[C@H](CC(C)C)NC(=O)[C@H](CCCNC(=N)N)NC(=O)[C@@H](NC(=O)CNC(=O)[C@H](Cc2ccc(O)cc2)NC(=O)[C@@H]2CCCN2C(=O)[C@H](C)NC(=O)[C@H](C)NC(=O)[C@@H](N)CCCNC(=N)N)C(C)C)CSSC[C@@H]2NC(=O)[C@@H](NC(=O)[C@H](CO)NC(=O)[C@H](CO)NC(=O)[C@H](CO)NC(=O)[C@H](CC(C)C)NC(=O)CNC(=O)[C@H](C)NC(=O)[C@H](CC(C)C)NC(=O)[C@@H](NC(=O)[C@@H](N)CC(=O)O)C(C)C)CSSC[C@H](NC(=O)CNC(=O)[C@H](Cc3c[nH]c4ccccc34)NC(=O)[C@H](CCCCN)NC2=O)C(=O)N[C@@H](CO)C(=O)N[C@@H](CCCCN)C(=O)N[C@@H](CO)C(=O)N[C@@H](CCC(=O)O)C(=O)N[C@@H]([C@@H](C)CC)C(=O)N[C@@H](CO)C(=O)N[C@@H](CO)C(=O)N[C@@H](CC(C)C)C(=O)N[C@H](C(=O)O)CSSC[C@@H](C(=O)NCC(=O)NCC(=O)N[C@@H](CO)C(=O)N[C@@H](CCCNC(=N)N)C(=O)N[C@@H](Cc2c[nH]c3ccccc23)C(=O)O)NC(=O)[C@H]([C@@H](C)O)NC(=O)[C@H](Cc2ccccc2)NC(=O)[C@H]([C@@H](C)CC)NC(=O)[C@H](C(C)C)NC(=O)[C@H](C)NC(=O)[C@H](CCCNC(=N)N)NC1=O", "target or system": "RXFP3 (Homo sapiens, UniProt Q9NSD7, S163A)", "system": "HEK-293T", "scale": "reference: wild type", "measurement": "Emax", "result": "49.9 ± 5.85%"}
